# Measurements of several laboratories.
SMILES,organism,assay,test system,conditions,scale,endpoint,result
CC(=O)[O-].O.O.O.O.[Co+2].[O-]c1ccc(Br)cc1C=NCCN1CCOCC1,Candida albicans,,,20 µL of 100 µM per disc,,inhibition zone diameter,10 mm
CNc1cc(C(=O)Nc2ccc(Cl)cc2)ccc1OC,duck hepatitis B virus,qPCR,"Pekin ducklings, infected","oral, 100 mg/kg",reference: vehicle,serum viral DNA reduction,≤ 2 log10
Brc1ccc(-c2c[nH]c(-c3ccccn3)n2)cc1,Schistosoma mansoni,,worm couples,10 µM,,reduction in egg number,50%
O=C(NO)c1cccc(C(=O)NCCc2ccccc2)c1,Lucilia cuprina,pupation,"LS strain, larvae on impregnated cotton wool",216 h,,IC50,> 1000 µg
Cc1ccc(C(c2c[nH]c(=O)[nH]c2=O)c2c[nH]c(=O)[nH]c2=O)cc1,HIV-1 subtype C,refers to: p24,,concentration not given,,antiviral activity,inactive
CC(C)C(=O)SCCCCCC(NC(=O)OC(C)(C)C)C(=O)NC12CC3CC(CC(C3)C1)C2 (stereo not drawn),Lucilia cuprina,larval weight gain,"LS strain, larvae on impregnated cotton wool",24 h,,IC50,284 µg
Fc1ccc2c(c1)c1nc3ccc(Br)cc3c-1cn2Cc1cn(-c2ccccc2I)nn1,Giardia duodenalis,"UHPLC-Q-TOF-MS, refers to: 1-heptadecanoyl-sn-glycero-3-phosphocholine",trophozoites,"IC50, m/z 508.3, retention 10.52 min",reference: 0.25% DMSO,fold change,3.39
CC(C)C(C(=O)Nc1ccc(C(=O)NO)cc1)c1ccccc1 (stereo not drawn),Lucilia cuprina,pupation,"LS strain, larvae on impregnated cotton wool",216 h,,IC50,28 µg
CN1C[C@H](c2cccc(C(F)(F)F)c2)[C@@H](C(=O)Nc2ccccc2F)C1=O,Arabidopsis thaliana,root length,overexpressing wild-type DHODH WT-10,5 µM,reference: non-transgenic wild type,tolerance,~2.8 fold

# For quick reference, copied from above:
SMILES,organism,assay,test system,conditions,scale,endpoint,result
CN1C[C@H](c2cccc(C(F)(F)F)c2)[C@@H](C(=O)Nc2ccccc2F)C1=O,Arabidopsis thaliana,root length,overexpressing wild-type DHODH WT-10,5 µM,reference: non-transgenic wild type,tolerance,~2.8 fold
